Measurements from different studies.
Compare with care: the assays were run in different laboratories. Several values in a cell are separate wells, animals, samples, runs or records.
HDAC8: Histone deacetylase 8 (HDAC8, Homo sapiens, UniProt Q9BY41)
UniProt Q9BY41, sequence (whole entry, looked up): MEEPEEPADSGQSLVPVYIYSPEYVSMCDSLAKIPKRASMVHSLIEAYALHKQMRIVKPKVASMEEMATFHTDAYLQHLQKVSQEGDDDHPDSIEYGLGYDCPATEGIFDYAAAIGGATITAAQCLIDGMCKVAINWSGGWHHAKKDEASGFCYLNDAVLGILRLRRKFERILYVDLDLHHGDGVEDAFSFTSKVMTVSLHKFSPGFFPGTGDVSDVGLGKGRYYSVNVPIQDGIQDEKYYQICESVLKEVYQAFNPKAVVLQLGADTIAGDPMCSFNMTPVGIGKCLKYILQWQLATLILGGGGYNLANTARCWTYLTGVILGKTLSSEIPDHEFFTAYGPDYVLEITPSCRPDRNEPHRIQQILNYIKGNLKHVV
DRD3: D(3) dopamine receptor (DRD3, Homo sapiens, UniProt P35462)
UniProt P35462, sequence (whole entry, looked up): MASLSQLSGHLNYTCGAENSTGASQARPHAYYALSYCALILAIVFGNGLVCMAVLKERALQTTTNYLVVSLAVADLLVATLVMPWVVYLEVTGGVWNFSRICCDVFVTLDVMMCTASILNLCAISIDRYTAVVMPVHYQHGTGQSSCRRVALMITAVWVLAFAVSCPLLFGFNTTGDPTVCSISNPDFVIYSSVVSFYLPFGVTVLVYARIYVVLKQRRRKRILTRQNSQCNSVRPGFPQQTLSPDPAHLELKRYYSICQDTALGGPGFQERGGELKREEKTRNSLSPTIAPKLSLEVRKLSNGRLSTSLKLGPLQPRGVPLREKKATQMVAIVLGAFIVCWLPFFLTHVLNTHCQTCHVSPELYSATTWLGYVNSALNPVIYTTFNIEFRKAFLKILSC
UniProt P00915, sequence (whole entry, looked up): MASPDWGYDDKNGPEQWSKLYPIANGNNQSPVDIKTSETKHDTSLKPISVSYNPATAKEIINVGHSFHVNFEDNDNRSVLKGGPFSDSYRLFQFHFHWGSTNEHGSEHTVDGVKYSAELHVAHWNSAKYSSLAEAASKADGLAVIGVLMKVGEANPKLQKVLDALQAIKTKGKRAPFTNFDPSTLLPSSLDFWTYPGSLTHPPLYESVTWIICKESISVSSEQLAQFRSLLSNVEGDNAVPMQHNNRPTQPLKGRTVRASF
UniProt O00519, sequence (whole entry, looked up): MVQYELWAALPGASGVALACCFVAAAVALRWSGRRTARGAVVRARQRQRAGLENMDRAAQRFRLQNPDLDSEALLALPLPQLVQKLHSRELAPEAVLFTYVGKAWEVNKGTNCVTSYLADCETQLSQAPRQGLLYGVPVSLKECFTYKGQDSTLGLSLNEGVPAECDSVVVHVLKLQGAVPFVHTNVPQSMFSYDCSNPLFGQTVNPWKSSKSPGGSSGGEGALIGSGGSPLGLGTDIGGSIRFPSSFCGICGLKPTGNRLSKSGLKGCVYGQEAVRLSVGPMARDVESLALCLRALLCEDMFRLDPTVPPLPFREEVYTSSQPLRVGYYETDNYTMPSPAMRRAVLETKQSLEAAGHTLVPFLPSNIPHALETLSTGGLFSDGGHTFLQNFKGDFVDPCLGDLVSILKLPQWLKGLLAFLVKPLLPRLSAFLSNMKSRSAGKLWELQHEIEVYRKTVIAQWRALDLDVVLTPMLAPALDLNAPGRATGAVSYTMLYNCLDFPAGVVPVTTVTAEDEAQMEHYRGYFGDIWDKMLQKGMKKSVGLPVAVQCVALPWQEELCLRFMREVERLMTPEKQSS
UniProt P06401, sequence (whole entry, looked up): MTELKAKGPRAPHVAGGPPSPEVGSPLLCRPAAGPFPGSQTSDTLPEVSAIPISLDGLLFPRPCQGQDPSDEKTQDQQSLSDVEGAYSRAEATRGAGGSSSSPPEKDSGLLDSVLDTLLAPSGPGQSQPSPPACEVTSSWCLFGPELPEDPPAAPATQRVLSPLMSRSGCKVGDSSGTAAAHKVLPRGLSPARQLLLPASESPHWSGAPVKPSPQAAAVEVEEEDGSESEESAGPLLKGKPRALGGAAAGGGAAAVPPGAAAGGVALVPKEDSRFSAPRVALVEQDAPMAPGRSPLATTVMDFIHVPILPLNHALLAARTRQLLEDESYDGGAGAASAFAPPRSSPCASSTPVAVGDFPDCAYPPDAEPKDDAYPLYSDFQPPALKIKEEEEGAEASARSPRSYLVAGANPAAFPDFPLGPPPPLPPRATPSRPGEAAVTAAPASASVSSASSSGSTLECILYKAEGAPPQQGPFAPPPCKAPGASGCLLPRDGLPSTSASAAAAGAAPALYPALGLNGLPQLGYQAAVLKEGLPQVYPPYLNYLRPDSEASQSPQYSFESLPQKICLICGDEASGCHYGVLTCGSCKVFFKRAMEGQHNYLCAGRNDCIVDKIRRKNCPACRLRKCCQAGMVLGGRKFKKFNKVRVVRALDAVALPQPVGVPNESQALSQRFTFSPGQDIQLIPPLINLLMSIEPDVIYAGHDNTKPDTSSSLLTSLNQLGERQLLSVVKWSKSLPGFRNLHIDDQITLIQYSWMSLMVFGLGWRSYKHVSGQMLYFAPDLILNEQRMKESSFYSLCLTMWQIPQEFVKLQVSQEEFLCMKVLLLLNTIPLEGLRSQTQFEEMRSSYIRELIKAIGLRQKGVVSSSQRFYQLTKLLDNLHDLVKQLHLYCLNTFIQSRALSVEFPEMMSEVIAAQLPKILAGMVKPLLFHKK
UniProt P17706, sequence (whole entry, looked up): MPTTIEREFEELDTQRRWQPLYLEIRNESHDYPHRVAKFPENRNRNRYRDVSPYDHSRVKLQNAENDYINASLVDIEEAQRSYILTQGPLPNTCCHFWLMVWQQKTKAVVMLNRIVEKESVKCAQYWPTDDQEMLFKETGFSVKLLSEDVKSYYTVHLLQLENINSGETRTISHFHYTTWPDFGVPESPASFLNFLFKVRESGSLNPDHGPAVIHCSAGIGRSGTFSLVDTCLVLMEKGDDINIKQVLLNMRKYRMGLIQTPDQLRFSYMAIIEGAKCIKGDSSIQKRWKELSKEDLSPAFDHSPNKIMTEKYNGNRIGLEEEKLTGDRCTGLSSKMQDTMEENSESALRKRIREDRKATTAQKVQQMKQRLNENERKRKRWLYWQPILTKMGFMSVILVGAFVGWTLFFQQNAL
UniProt Q9UBN7, sequence (whole entry, looked up): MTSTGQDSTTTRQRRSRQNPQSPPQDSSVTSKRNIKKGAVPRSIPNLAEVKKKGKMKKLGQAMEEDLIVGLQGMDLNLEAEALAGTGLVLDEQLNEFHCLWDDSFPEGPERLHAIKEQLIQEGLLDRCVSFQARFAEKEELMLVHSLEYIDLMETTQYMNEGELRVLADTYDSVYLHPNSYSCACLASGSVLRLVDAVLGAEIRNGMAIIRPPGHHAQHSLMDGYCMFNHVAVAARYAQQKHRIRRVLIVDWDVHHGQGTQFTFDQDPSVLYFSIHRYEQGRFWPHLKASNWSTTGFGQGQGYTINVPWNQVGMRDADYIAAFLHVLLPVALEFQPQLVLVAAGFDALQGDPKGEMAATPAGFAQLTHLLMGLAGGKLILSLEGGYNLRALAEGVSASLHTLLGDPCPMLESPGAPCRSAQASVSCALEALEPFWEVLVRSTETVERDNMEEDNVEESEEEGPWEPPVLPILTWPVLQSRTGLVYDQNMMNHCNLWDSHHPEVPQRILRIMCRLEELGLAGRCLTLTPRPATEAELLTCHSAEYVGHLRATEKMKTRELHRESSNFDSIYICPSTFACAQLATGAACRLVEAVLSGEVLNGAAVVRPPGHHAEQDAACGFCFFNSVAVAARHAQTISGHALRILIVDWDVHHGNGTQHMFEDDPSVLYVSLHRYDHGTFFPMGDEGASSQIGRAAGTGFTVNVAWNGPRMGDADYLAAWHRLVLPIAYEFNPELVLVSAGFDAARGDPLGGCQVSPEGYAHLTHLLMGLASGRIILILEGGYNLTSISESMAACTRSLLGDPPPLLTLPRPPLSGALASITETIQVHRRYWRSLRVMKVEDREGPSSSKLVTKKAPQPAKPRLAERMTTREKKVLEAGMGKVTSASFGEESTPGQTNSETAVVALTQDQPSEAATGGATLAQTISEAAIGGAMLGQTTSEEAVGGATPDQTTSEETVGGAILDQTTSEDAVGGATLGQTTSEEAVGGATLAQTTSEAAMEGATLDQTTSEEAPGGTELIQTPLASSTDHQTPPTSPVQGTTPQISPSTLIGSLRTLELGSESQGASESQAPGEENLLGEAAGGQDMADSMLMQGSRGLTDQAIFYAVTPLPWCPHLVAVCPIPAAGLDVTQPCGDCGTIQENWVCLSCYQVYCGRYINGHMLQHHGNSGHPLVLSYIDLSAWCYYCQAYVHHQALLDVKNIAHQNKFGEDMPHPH
UniProt P43235, sequence (whole entry, looked up): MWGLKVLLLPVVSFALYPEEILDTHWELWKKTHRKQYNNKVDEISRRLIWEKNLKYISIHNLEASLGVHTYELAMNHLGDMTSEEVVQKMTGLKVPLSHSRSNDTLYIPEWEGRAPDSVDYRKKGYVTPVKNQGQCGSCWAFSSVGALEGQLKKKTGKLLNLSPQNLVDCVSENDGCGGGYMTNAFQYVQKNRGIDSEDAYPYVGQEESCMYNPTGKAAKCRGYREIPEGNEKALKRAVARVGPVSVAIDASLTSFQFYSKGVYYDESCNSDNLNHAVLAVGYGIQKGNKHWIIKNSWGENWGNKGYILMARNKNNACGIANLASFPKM
UniProt P08588, sequence (whole entry, looked up): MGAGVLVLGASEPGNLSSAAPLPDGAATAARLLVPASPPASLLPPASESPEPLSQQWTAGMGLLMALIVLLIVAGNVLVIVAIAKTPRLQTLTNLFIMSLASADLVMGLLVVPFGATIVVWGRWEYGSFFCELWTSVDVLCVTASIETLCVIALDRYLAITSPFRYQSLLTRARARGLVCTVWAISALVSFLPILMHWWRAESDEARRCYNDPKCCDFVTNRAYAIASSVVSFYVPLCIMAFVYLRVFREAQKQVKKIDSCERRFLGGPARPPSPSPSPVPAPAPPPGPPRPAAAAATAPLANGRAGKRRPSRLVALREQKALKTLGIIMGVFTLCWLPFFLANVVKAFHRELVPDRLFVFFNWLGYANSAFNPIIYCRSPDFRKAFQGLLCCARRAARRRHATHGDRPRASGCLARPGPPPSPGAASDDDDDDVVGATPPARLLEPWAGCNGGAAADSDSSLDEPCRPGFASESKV

With `O=C(CCCCCCN(Cc1cccnc1)Cc1cccnc1)NO` the selectivity ratio was 2.9 (HDAC8; inhibitor; baseline: IC50 HDAC8 over HDAC1).
The selectivity ratio of `CC(=O)Nc1ccc(/N=N/c2ccc(OC[C@@H](O)CNC(C)C)cc2)cc1` is reported as 93.8 (ADRB1 (Homo sapiens, UniProt P08588); cAMP production, EPAC FRET biosensor; dark; baseline: beta1 over beta2).
The selectivity ratio of `CCCCCCCCCCCCCCCCC1=C[C@H](C(=O)NC(C(=O)O)C(C)C)[C@H]2C(=O)C(C(=O)OC)=C(CCCCCCCCCCCCCCCC)[C@H]2[C@H]1C(=O)OC` (stereo partly shown) is reported as 4 (PTPN2 (Homo sapiens, UniProt P17706); inhibitor, pNPP hydrolysis; baseline: TCPTP over PTP1B, higher = TCPTP-selective).
The selectivity ratio of `Cc1cc(CN(CCCCCCC(=O)NO)Cc2ccc(F)c(C)c2)ccc1F` is reported as 2.9 (HDAC8; inhibitor; baseline: IC50 HDAC8 over HDAC1).
The selectivity ratio of `Cc1ccc(C[C@H](NC(=O)CN2CCCc3cc4cc(C(=O)NCCNC(=O)CCCC[C@@H]5SC[C@@H]6NC(=O)N[C@@H]65)c(=O)oc4cc32)C(=O)NC/C=C/S(=O)(=O)c2ccccc2)cc1` is reported as 21 (Cathepsin K (CTSK, Homo sapiens, UniProt P43235); inhibitor; kinact/Ki; baseline: rhodesain over target).
`O=C(NO)c1ccc(Cn2sc3ccccc3c2=O)cc1` has a selectivity ratio of over 400 fold (HDAC6 (Homo sapiens, UniProt Q9UBN7); baseline: SIRT1/2/3/5 IC50 over HDAC6 IC50).
For `CC(C)c1ccc2c(c1)CC[C@H]1[C@](C)(C(=O)O)CCC[C@]21C`, the selectivity ratio was 14 and 14.5 (CA1 (Homo sapiens, UniProt P00915); enzyme activity, inhibitor; baseline: IC50 CA I over IC50 CA IX).
`CC(C)(O)Cn1nc(-c2ccc3nc(OC(F)F)ccc3c2)c2c(N)ncnc21` has a selectivity ratio of over 10 fold (CDPK1 (Toxoplasma gondii, UniProt Q9BJF5); Kinase-Glo luminescence; with: Syntide 2 substrate; baseline: CDPK1 over CpCDPK1 IC50).
For `O=C(CCCCCCNCc1ccc(F)cc1)NO`, the selectivity ratio was 7.7 (HDAC8; inhibitor; baseline: IC50 HDAC8 over HDAC1).
With `CC(C)CCSc1nc2c([nH]1)c(=S)n(C)c(=O)n2C` the selectivity ratio was at most 10 fold (PGR (Homo sapiens, UniProt P06401); reporter gene; T47D/A1-2; baseline: potency at target over glucocorticoid receptor).
`CCCCCCCC(=O)Nc1ccc(OC)nc1` gave a selectivity ratio of 20 fold (FAAH (Homo sapiens, UniProt O00519); substrate, biochemical; baseline: FAAH over hCE1).
With `O=C(CCCCCCN(Cc1ccc([N+](=O)[O-])cc1)Cc1ccc([N+](=O)[O-])cc1)NO` the selectivity ratio was 2.5 (HDAC8; inhibitor; baseline: IC50 HDAC8 over HDAC1).
With `[3H]C(CNC(=O)c1ccc(-c2ccsc2)cc1)C([3H])CN1CCN(c2ccccc2OCCF)CC1` (stereo not shown) the selectivity ratio was 4 fold (DRD3; binding; HEK293; baseline: Kd rat D3 over Kd human D3).
`O=C(CCCCCCN(Cc1ccc(F)cc1)Cc1ccc(F)cc1)NO` gave a selectivity ratio of 2.1 (HDAC8; inhibitor; baseline: IC50 HDAC8 over HDAC1).
For `N[C@@H](CCC(=O)N[C@@H](CS[Se]Cc1ccc(-c2cccc(C(O)c3ccc(Cl)c(Cl)c3)c2)cc1)C(=O)NCC(=O)O)C(=O)O` (stereo partly shown), the selectivity ratio was over 20 fold (PTPRC (Homo sapiens, UniProt P08575); baseline: IC50 PTPRC over STEP).
With `Cc1ccc(C(=O)Nc2ccc(CP(=O)(O)O)cc2CP(=O)(O)O)cc1NC(=O)c1cccc(NC(=O)Nc2cccc(C(=O)Nc3cc(C(=O)Nc4ccc(CP(=O)(O)O)cc4CP(=O)(O)O)ccc3C)c2)c1` the selectivity ratio was 27 fold (F9 (Homo sapiens, UniProt P00740); enzyme activity, inhibitor; baseline: factor XIa over factor IXa).
With `O=C(c1ccc(F)cc1)C1CCN(C2Cc3c(O)cccc3CC2O)CC1` (single isomer, unassigned; (+)) the selectivity ratio was 1900 (VAChT and sigma-2 receptor; baseline: sigma-2 Ki over VAChT Ki).
With `O=C(CCCCCCNCc1cccnc1)NO` the selectivity ratio was 3.7 (HDAC8; inhibitor; baseline: IC50 HDAC8 over HDAC1).
`Cc1cccc(N2CCN(C[C@@H](O)c3ccccc3F)CC2)c1` has a selectivity ratio of 20 fold (DRD3; binding, radioligand competition; baseline: Ki D2 over Ki D3).
